{"data": "Measured values collected from several papers", "note": "Each line is one published result; not all experiments were run side by side. “And” joins repeats or separate records; there may be more than shown. ± gives the spread as reported."}
{"Compound": "C[C@H]1[C@H]2N(C(=O)CN(C)N2C(=O)NCc2ccccc2)[C@@H](Cc2ccc(OP(=O)(O)O)cc2)C(=O)N1Cc1cccc2cccnc12", "system": "human, plasma", "conditions": "intravenous, dose not given, before administration", "plasma concentration": "< 0.1 ng/mL"}
{"Compound": "C[C@H](CCC(=O)NCCS(=O)(=O)O)[C@H]1CC[C@H]2[C@@H]3CC[C@@H]4C[C@H](OS(=O)(=O)O)CC[C@]4(C)[C@H]3CC[C@]12C", "system": "healthy human volunteers, plasma", "conditions": "dose not given, 0 h, baseline phase, no drug", "plasma concentration": "140 ± 43 nM"}
{"Compound": "CCCN(CCC)S(=O)(=O)c1ccc(C(=O)O)cc1", "system": "healthy male humans, plasma", "conditions": "oral, dose not given, 4 h, 1 h before cocktail", "plasma concentration": "337000 nM"}
{"Compound": "Cn1c(=O)[nH]c2nc[nH]c2c1=O", "system": "human, both sexes, plasma", "conditions": "mean", "plasma concentration": "13700 nM"}
{"Compound": "C[C@H](CCC(=O)NCC(=O)O)[C@H]1CC[C@H]2[C@@H]3[C@H](O)C[C@@H]4C[C@H](O)CC[C@]4(C)[C@H]3C[C@H](O)[C@]12C", "system": "healthy human volunteers, plasma", "conditions": "dose not given, 0 h, baseline phase, no drug", "plasma concentration": "51.3 ± 17 nM"}
{"Compound": "CC1(C)CCC(CN2CCN(c3ccc(C(=O)NS(=O)(=O)c4ccc(NCC5CCOCC5)c([N+](=O)[O-])c4)c(Oc4cnc5[nH]ccc5c4)c3)CC2)=C(c2ccc(Cl)cc2)C1", "assay": "UPLC-MS/MS", "system": "human patients, non-responders", "conditions": "oral, dose not given, 6 h post-dose, steady state, median", "plasma concentration": "1630 ng/mL"}
{"Compound": "CN1CCN(c2ccc(OC(F)(F)F)c(Nc3ncc4c(n3)-c3c(c(C(N)=O)nn3CCO)CC4)c2)CC1", "assay": "LC-MS/MS", "system": "human, plasma", "conditions": "oral, 12 mg/m2, 8 h post-dose", "plasma concentration": "69.5 ng/mL and 73.2 ng/mL and 94.2 ng/mL and 41.6 ng/mL"}
{"Compound": "O=C(O)[C@H]1O[C@@H](Oc2cc(O)cc(/C=C\\c3ccc(O)cc3)c2)[C@H](O)[C@@H](O)[C@@H]1O", "system": "human, plasma", "conditions": "median", "plasma concentration": "426 nM"}
{"Compound": "Cc1cc(N(CCOS(C)(=O)=O)CCOS(C)(=O)=O)ccc1C=O", "system": "human, plasma", "conditions": "intravenous, 9 mg/m^2, 5 min", "plasma concentration": "14.5 ng/mL"}
{"Compound": "O=C(O)CCCCCCCCCCCCCCC(=O)O", "system": "healthy human volunteers, plasma", "conditions": "oral, dose not given, 0 h, control phase, probe drugs alone", "plasma concentration": "119 ± 15 nM"}
{"Compound": "COc1cc2c(cc1OC)CN(CCc1ccc(NC(=O)c3cc(OC)c(OC)cc3NC(=O)c3cnc4ccccc4c3)cc1)CC2", "system": "human, plasma", "conditions": "intravenous infusion, 5.9 mg/kg, 90 min", "plasma concentration": "2850 nM and 2560 nM and 3880 nM"}
{"Compound": "C[C@H](CCC(=O)NCC(=O)O)[C@H]1CC[C@H]2[C@@H]3CC[C@@H]4C[C@H](O)CC[C@]4(C)[C@H]3CC[C@]12C", "system": "healthy human volunteers, plasma", "conditions": "dose not given, 0 h, control phase, probe drugs alone", "plasma concentration": "21 ± 6.3 nM"}
{"Compound": "COCCCOc1ccnc(C[S+]([O-])c2nc3ccccc3[nH]2)c1C (centres unmarked)", "system": "healthy male humans, plasma", "conditions": "oral, 40 mg/day for -4 days, 2 h", "plasma concentration": "325 ng/mL"}
{"Compound": "Cn1c(=O)c2c(ncn2C)n(C)c1=O", "system": "human, both sexes, plasma", "conditions": "median", "plasma concentration": "172000 nM"}
{"Compound": "CC1(C)CCC(CN2CCN(c3ccc(C(=O)NS(=O)(=O)c4ccc(NCC5CCOCC5)c([N+](=O)[O-])c4)c(Oc4cnc5[nH]ccc5c4)c3)CC2)=C(c2ccc(Cl)cc2)C1", "system": "human, plasma", "conditions": "oral, 300 mg/day", "plasma concentration": "1520 nM and 774 nM"}
{"Compound": "O=C(O)CCCCCCCCCCCCC(=O)O", "system": "healthy human volunteers, plasma", "conditions": "dose not given, 0 h, baseline phase, no drug", "plasma concentration": "116 ± 22 nM"}
{"Compound": "Cn1c(=O)[nH]c(=O)c2[nH]cnc21", "system": "human, both sexes, plasma", "conditions": "mean", "plasma concentration": "5310 nM"}
{"Compound": "N#Cc1ccc(C(c2ccc(C#N)cc2)n2cncn2)cc1", "system": "human patients, plasma", "conditions": "oral, 2.5 mg daily, day of surgery", "plasma concentration": "20.2 ± 1.83 ng/mL"}
{"Compound": "C[C@@H](O)[C@H]1C(=O)N2C(C(=O)O)=C(SCCN=CN)C[C@H]12", "system": "human", "conditions": "intravenous, 500 mg single, 0.48 h", "plasma concentration": "86900 nM"}
{"Compound": "C[C@H](CCC(=O)NCC(=O)O)[C@H]1CC[C@H]2[C@@H]3[C@H](O)C[C@@H]4C[C@H](O[C@@H]5O[C@H](C(=O)O)[C@@H](O)[C@H](O)[C@H]5O)CC[C@]4(C)[C@H]3CC[C@]12C", "system": "healthy human volunteers, plasma", "conditions": "dose not given, 0 h, control phase, probe drugs alone", "plasma concentration": "40.3 ± 16.1 nM"}
{"Compound": "O=C(O)[C@H]1O[C@@H](Oc2ccc(/C=C/c3cc(O)cc(O)c3)cc2)[C@H](O)[C@@H](O)[C@@H]1O", "system": "human, plasma", "conditions": "median", "plasma concentration": "87.1 nM"}
{"Compound": "CC[C@@H]([C@H](C)O)n1ncn(-c2ccc(N3CCN(c4ccc(OC[C@@H]5CO[C@@](Cn6cncn6)(c6ccc(F)cc6F)C5)cc4)CC3)cc2)c1=O", "system": "human patients, induction therapy, plasma", "conditions": "oral, 300 mg/day, day 21, mean", "plasma concentration": "900 ng/mL"}
{"Compound": "O=C(Nc1cnccc1Cl)N1CCN(Cc2ccc3c(c2)OC(F)(F)O3)CC1", "system": "human, plasma", "conditions": "2.5 mg single dose, 24 h post dose day 1", "plasma concentration": "1.01 ng/mL"}
{"Compound": "Cn1cnc2[nH]c(=O)[nH]c(=O)c21", "system": "human, both sexes, plasma", "conditions": "mean", "plasma concentration": "6490 nM"}
{"Compound": "C[C@H](CCC(=O)O)[C@H]1CC[C@H]2[C@@H]3[C@H](O)C[C@@H]4C[C@H](O)CC[C@]4(C)[C@H]3CC[C@]12C", "system": "healthy human volunteers, plasma", "conditions": "oral, dose not given, 0 h, control phase, probe drugs alone", "plasma concentration": "1060 ± 330 nM"}
{"Compound": "Cn1cnc2c1c(=O)[nH]c(=O)n2C", "system": "human, both sexes, plasma", "conditions": "median", "plasma concentration": "17100 nM"}
{"Compound": "CO[C@H]1/C=C/O[C@@]2(C)Oc3c(C)c(O)c4c(O)c(c(/C=N/N5CCN(C)CC5)c(O)c4c3C2=O)NC(=O)/C(C)=C\\C=C\\[C@H](C)[C@H](O)[C@@H](C)[C@@H](O)[C@@H](C)[C@H](OC(C)=O)[C@@H]1C", "system": "healthy male humans, plasma", "conditions": "oral, dose not given, 3 h, with cocktail", "plasma concentration": "7760 ng/mL"}
{"Compound": "Cn1c(=O)c2[nH]cnc2n(C)c1=O", "system": "human, both sexes, plasma", "conditions": "mean", "plasma concentration": "40400 nM"}
{"Compound": "C[C@H](CCC(=O)NCC(=O)O)[C@H]1CC[C@H]2[C@@H]3CC[C@@H]4C[C@H](OS(=O)(=O)O)CC[C@]4(C)[C@H]3C[C@H](O)[C@]12C", "system": "healthy human volunteers, plasma", "conditions": "dose not given, 0 h, control phase, probe drugs alone", "plasma concentration": "265 ± 100 nM"}
{"note": "A few entries again:"}
{"Compound": "CC1(C)CCC(CN2CCN(c3ccc(C(=O)NS(=O)(=O)c4ccc(NCC5CCOCC5)c([N+](=O)[O-])c4)c(Oc4cnc5[nH]ccc5c4)c3)CC2)=C(c2ccc(Cl)cc2)C1", "system": "human, plasma", "conditions": "oral, 300 mg/day", "plasma concentration": "1520 nM and 774 nM"}
{"Compound": "O=C(O)CCCCCCCCCCCCC(=O)O", "system": "healthy human volunteers, plasma", "conditions": "dose not given, 0 h, baseline phase, no drug", "plasma concentration": "116 ± 22 nM"}
